# Published values from different studies.
# Each numbered part is a random draw from the data of one study; scales do not carry over between parts.

# Study 1
# Target: Fragile X messenger ribonucleoprotein 1, C-terminal low-complexity region (Fmr1, Mus musculus, UniProt P35922)
# Method: RNA Bind-n-Seq
# Form: RNA
# Matrix: in vitro
# Tested at: 200 nM
# Setting: whole 134-nt RNA, ends assumed
# With: 150 mM KCl
# Reference: input library
# Direction: higher = stronger binding
Oligonucleotide,log2 enrichment
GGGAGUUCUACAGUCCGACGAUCUGGGAGGUGGAUUUUGUUUAUUUUUUUAGCUCAUUUCCAGGGGUGGGAAUUUUUUUUUAAUAUGUGUCAUGAAUAAAGUUGUUUUUGAAUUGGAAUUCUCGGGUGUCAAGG,0.329
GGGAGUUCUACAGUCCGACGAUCCUCAAGUCCUGUGCUACACAUCGUAUGUACCGAAUCGGGGAAGGAAGGAAGGGGAAAGUAUUAUGUUACGCCGUUCGGAUCUGCACUUCCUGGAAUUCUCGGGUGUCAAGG,-0.21
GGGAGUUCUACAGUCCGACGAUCAGUCCUGUGCUACACAUCGUAUGUACCGAAUCGGGUUUUUUUGGGAAAGGGUUUGGGAAAGUAUUAUGUUACGCCGUUCGGAUCUGCACUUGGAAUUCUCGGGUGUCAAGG,0.218
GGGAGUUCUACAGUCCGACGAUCACCAUGCAGGUGGGCAUCUUUGGGAAGUGGGGCAAGGGGGGGAUAGGGAGGGGGGUAAAAAUUUGGGAACAGGUGGUCCCAGGUCGUUUCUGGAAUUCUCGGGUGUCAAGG,0.678
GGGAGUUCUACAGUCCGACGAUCAGUCCUGUGCUACACAUCGUAUGUACCGAAUCAAAUUUAAACCCCCCCAAACCCAAAAAAGUAUUAUGUUACGCCGUUCGGAUCUGCACUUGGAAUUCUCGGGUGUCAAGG,-0.123
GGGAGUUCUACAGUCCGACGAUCGUCCUGUGCUACACAUCGUAUGUACCGAAUCGGUUUUUUUGGUUUUUGGUUUUUUUGGAAAGUAUUAUGUUACGCCGUUCGGAUCUGCACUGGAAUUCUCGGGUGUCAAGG,-0.742
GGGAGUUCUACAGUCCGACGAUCUCCUCAAGUCCUGUGCUACACAUCGUAUGUACCGAAUCGGUUUGGUGGUGGAAAGUAUUAUGUUACGCCGUUCGGAUCUGCACUUCCAGCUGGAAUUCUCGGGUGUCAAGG,-0.175
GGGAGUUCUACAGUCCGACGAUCUGGUGACCUACCUGGACGUCCGGAGCUGCCUUGGACACCUAGGCUACCUGGGCUACCCCACCCUCUGUGAGCAGGACCAGGCCCAUGCCAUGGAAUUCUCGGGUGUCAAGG,-0.635
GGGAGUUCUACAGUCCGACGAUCCCUGUGCUACACAUCGUAUGUACCGAAUCAAAUUUUUAAAUUUUUUUAAACCCCCCCAAAAAAGUAUUAUGUUACGCCGUUCGGAUCUGCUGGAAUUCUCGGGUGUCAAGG,0.155
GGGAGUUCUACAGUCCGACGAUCUUGUCUACAGAACUAGACAGUACGGAUGGUGCCAAAGUUUUUAGUAAACAACCAGGAAGAAUCCAAAGAGUAGCAAGAGGAUCGGGUGUAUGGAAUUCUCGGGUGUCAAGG,-1.39

# Study 2
# Target: RNA binding protein fox-1 homolog 2, RRM domain, GST-SBP tag (RBFOX2, Homo sapiens, UniProt O43251-10, residues 100-194)
# Method: RNA Bind-n-Seq
# Form: RNA
# Matrix: in vitro
# Tested at: 365 nM
# Setting: natural RNA segment, single round, ends assumed
# Reference: no-protein control
# Direction: higher = stronger binding
# Construct (chain): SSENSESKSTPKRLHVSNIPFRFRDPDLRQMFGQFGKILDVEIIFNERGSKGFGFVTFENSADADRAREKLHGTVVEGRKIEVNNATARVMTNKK
Oligonucleotide,RBNS enrichment (R)
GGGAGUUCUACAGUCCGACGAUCAGCCCUGUUGUGCCACAGAGUGUAGCCAGGUCCCCCUGCAGCUAGUCCUAGUGAACCUCACCCCGAGGCCCUGCAUGGGCCAGCCCCUCCAUCUGUACUUGGUCCAACUGUGGAAUUCUCGGGUGCCAA,0.388
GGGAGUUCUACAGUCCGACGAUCAGGCCAAGCCUCAGCAGGAAAGUGCAGUAGAAGAUACUGUUUUACAGACAAGUCCUGUGUAACCUGCUUUAAAUGCUACACAUGUUAAUAAAAUGCUUAUUUGGUUAGCUUGGAAUUCUCGGGUGCCAA,0.364
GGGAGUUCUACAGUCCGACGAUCCUACAUACAGCUGCCAUGCCCUUUCUGAACAAAGGCUGGAGUUGUCCAAUUGCAGUUCUUCUUCGCAUAGAAAUGCAAUUGGAAUAUUUACAAAUCAUAAUCAACAGAGCUGGAAUUCUCGGGUGCCAA,0.327
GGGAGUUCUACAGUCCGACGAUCUUACAGCCACCCUUGCAAGAAGUGCUGGUAUAGGGUCAGCUGGGGAGAAGAGCCCUGGUCAGUGGCCUUGGAUUGUCACUUCUUUCAGGAUAAAGAUCCCUUGGGGGGGGUGGAAUUCUCGGGUGCCAA,0.445
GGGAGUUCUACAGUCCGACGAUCUGGCCCAUUAAGAGGCCUCAGUGGGAGAAGGGCUAAAAAGAGCCUGAGGUCAUGCGGUUGGACACUGAACUUGGUAAAGACGUCCUUCCCCAAGGAAGCCAUAAUGUGCAUGGAAUUCUCGGGUGCCAA,0.968
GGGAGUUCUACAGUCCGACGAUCAAACUGUCUGGUGUUGGGAAGGGAUGAGUUCUUGUAAAUCUGUAAAUAGCUUCAAUAAGAUGUAAAGUUUUACAAAUUCAAGGUGAUAUUAACACUUGUGUAGAACAUUCUGGAAUUCUCGGGUGCCAA,0.45
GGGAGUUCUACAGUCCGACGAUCUGAAAGCAGUGUGAUACCCAAGUCAUAGGUGCUUCUCGUAUGUGAACAGGUGUCAUUCUACAGAUCUGUUAUGUGUUUUCCUGUUGACUCUUAAGAGUCCCUGCAUGUAAUGGAAUUCUCGGGUGCCAA,22.9
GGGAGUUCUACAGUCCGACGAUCGCCUAAUAAACCUGUGUGCACUCCUUUAGGUCCCAGCACUUUCUUCCUAUGGGUGGUCCAGACAAAAGUAUGUCCUCCUGUAGGACGCUAGAGGGCGCUCUAGGACAGCGUGGAAUUCUCGGGUGCCAA,0.427
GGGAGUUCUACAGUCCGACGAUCUGUUGUUUGUAGAAGACCUCACUGGGGUCUCAGAUAAGCAGGUAAAAUAAACCUCAGGGUUUAUCUUGAGGUGCCAGAAGUCCCACUCAUGUUUCACAAGAAACCUCUUAUGGAAUUCUCGGGUGCCAA,0.196

# Study 3
# Target: Interferon regulatory factor 5, full length, phosphomimetic (IRF5, Homo sapiens, UniProt Q13568-2, residues 1-514, S451D/S453D/S456D/S462D)
# Method: protein-binding microarray
# Form: double-stranded DNA, one strand shown
# Matrix: in vitro
# Tested at: 940 nM top
# Setting: 60-bp whole probe
# With: salmon DNA 0.4 mg/ml
# Reference: random background probes
# Direction: higher = stronger binding
# Constant ends, left off below: GCCTAGCAC … GTCTTGATTCGCTTGACGCTGCTG
Oligonucleotide,fitted relative affinity [z-score]
TCAGTTATCCATCTCAAACTGTGCTAG,0.52
TATCATTTAATTATATGGCTGTGCTAG,1.13
TTAGGACTGGCACTGGGTTAGTGCTAG,-0.54
GACGATATCAGTTTCGAGCCGTGCTAG,3.06
GACGATTTCATTCTCGAGACGTGCTAG,1.92
AATCATTTTCGTTTTTATTAGTGCTAG,2.88
TTAGATTTTAGTCTCGATTAGTGCTAG,4.71
GGTCTTCTGGGCTGTTTGGTTGTGCTA,0.16
TTAGATTTCGGGTTTCGATTCGTGCTA,5.71
TCACATCTTGTTCCCAGACTGTGCTAG,0.661
TTAGGTCTCAGTATCGGTTAGTGCTAG,5.07
TTTACTTTCTATCTCTGTTTGTGCTAG,4.2
TCTGACCCCCTGCGCGGCAGGTGCTAG,-0.773
GACGATTTCGCGTTTCGAGACGTGCTA,0.555
TTAGATTTCAGTTCTGATTAGTGCTAG,0.424
TTAGATATCAGATTCGATTAGTGCTAG,0.403
TCATCTCTGCTTGTATCACTGTGCTAG,1.43
TTAGGACTGGATCTCGGTTAGTGCTAG,0.216
TTAGGTTCCGGCTTCGGTTAGTGCTAG,1.34
TCATGCTTCGAGATCTCACTGTGCTAG,0.108
ATAGATTTCAGTCTCGATTAGTGCTAG,4.09
TTAGAACTTGGGTTTCGATTAGTGCTA,5.61
TTCTCTTTCACTACTCCATTGTGCTAG,3.58
TTAGGACTGGACTATCGGGTAGTGCTA,-0.56

# Study 4
# Target: RING finger protein unkempt homolog, zinc fingers 1-6, GST-SBP tag (UNK, Homo sapiens, UniProt Q9C0B0, residues 30-357)
# Method: RNA Bind-n-Seq
# Form: RNA
# Matrix: in vitro
# Tested at: not given
# Setting: RNA with constant flanks, human-mouse chimeric sites, ends assumed
# Reference: input RNA pool
# Direction: higher = stronger binding
# Residues (chain): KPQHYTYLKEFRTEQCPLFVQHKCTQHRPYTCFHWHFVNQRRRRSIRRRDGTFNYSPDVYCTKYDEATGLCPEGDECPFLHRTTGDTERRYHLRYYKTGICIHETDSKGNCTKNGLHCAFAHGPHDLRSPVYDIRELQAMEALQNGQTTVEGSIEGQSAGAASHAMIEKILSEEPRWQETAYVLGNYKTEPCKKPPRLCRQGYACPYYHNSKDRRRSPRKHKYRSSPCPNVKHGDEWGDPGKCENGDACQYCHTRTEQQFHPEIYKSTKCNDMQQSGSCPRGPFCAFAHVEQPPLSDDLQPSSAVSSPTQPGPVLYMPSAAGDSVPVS
Oligonucleotide,bound/input enrichment
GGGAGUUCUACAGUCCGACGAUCUGACAAGGGCACUGCAGAGCCAUGCCUUUCCUUGACAUACAGAAAAAGCUGGGCAUCAGCCUGGACCGGCACUUUAUGUUCCUAAGCGCAGAACAGCCCUACAAGAUGGCUGGUCGAUGCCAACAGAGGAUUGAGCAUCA,0.0784 ratio
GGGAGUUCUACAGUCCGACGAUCAGAGAUAAGACAUCCAGGAACAUGCGAGGCUCCCGGAUGAAUGGGUUGCCUAGCCCCACUCACAGCGCCCACUGUAGCUUCUACAGAACCAGAACCUUGCAGGCAUUGAGUAAUGAGAAGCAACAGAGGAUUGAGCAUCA,0.124 ratio
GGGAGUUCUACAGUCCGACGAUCCUGGCACUGUAUCAGAUAUAUUAAUUUUUUAAUGUAGAUGUAAUUUUAAAAAUGAAUGGCUACUUUACGUGAUAGAUUAGGGUUUUACUAUAUAUGUGUACAUAUGUAUAUAUAUAUAUACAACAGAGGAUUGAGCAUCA,13.7 ratio
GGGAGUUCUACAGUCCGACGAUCGUAGCUGGGACUACAGAAAUGCUGGUAAUUUCAGUCACUUGCUGAUGACUUCUGAUGUCCCAGCAAAUAAUGCCACAGUUGACUGCUCUGUGAAGACUUCUGAGGACCCACGUCUAAGGUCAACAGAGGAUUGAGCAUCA,0.112 ratio
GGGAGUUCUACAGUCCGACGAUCACAGUUAUAUUGUUGAGUUUCAUUUUCAUAUAUUCUUGUAGUGUCUGCUUGCCUGUGACUUCUGGUAAAAUAAAAUAAGCCUUUGAAUUAGCAUGCUCAUGGUAUUUUUCUAAAAAUAAACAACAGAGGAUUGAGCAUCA,0.91 ratio
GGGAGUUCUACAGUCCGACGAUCGGACCAUAAUCAUGGAGGACAUAAUGCAGCUCCCCAAAGCGCGCGUCAACGCCAGCAUGUUACCACAGUAUAUCGACCGGCCCGUGUGCUUCGUAGGGAAGCUGGAAAAGAUUCAUCCCACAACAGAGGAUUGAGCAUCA,0.133 ratio
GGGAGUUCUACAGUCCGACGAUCUGGCGCCUGCGCUCCCCGUUUUUAAAUUUAAGUGUAUUUUUAUAAGACAUGUGUAUUUACAAUUGAGCUUUUGUUACAUAAUGCUGAAAUGCUACUGGAGAUUAUGAAAAAUGUUUCAAUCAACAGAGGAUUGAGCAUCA,0.409 ratio
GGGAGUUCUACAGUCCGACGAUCAGAUAUUAAGUAUUUUGAAAAAACUCGAACAGAUUUGACAAGGGUAGCCAGCUUGGAGUCUAGCAACUUGCCAAUGUGUUUACCAAUCUGGGGGCUUGUUUUUCUUUUCUUCUUUCAAAUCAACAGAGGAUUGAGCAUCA,0.377 ratio

# A few entries again (study 1):
Oligonucleotide,log2 enrichment
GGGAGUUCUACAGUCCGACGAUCUGGGAGGUGGAUUUUGUUUAUUUUUUUAGCUCAUUUCCAGGGGUGGGAAUUUUUUUUUAAUAUGUGUCAUGAAUAAAGUUGUUUUUGAAUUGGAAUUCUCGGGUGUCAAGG,0.329
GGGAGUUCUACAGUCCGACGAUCAGUCCUGUGCUACACAUCGUAUGUACCGAAUCAAAUUUAAACCCCCCCAAACCCAAAAAAGUAUUAUGUUACGCCGUUCGGAUCUGCACUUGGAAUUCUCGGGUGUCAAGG,-0.123
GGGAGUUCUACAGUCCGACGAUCGUCCUGUGCUACACAUCGUAUGUACCGAAUCGGUUUUUUUGGUUUUUGGUUUUUUUGGAAAGUAUUAUGUUACGCCGUUCGGAUCUGCACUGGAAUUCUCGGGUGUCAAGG,-0.742
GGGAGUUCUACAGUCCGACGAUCACCAUGCAGGUGGGCAUCUUUGGGAAGUGGGGCAAGGGGGGGAUAGGGAGGGGGGUAAAAAUUUGGGAACAGGUGGUCCCAGGUCGUUUCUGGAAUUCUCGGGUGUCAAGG,0.678
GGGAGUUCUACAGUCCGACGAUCCUCAAGUCCUGUGCUACACAUCGUAUGUACCGAAUCGGGGAAGGAAGGAAGGGGAAAGUAUUAUGUUACGCCGUUCGGAUCUGCACUUCCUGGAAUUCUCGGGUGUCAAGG,-0.21
